Published values collected from several papers.
Every numbered part comes from another study and shows a few of its results, in no order.

Study 1
Target: Hepatocyte nuclear factor 3-alpha (Foxa1, Mus musculus, UniProt P35582, residues 1-468, full length assumed)
Method: EMSA with sequencing
Form: double-stranded DNA, one strand shown
Matrix: in vitro
Tested at: 10 and 20 nM
Setting: whole designed probe, mean of two concentrations, ends assumed
Relative to: negative control set to 0
Reading: higher = stronger binding
Constant ends, left off below: GTGAGCGGTGCCCATTGATGGGGAAC … TTTCACTGGGATCGTGGGGAC
Residues (chain): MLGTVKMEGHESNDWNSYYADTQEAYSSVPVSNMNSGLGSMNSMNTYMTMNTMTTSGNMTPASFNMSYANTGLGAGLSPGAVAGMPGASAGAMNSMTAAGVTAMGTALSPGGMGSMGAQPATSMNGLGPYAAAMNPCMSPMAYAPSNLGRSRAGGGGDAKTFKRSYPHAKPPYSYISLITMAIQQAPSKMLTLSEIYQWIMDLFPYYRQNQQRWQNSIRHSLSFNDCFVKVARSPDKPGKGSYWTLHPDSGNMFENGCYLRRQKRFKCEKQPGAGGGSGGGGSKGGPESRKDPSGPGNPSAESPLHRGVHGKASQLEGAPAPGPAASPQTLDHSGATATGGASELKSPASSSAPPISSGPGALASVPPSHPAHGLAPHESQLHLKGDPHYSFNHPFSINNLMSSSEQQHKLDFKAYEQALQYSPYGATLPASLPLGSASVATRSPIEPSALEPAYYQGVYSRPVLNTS
Strand | normalised bound fraction [ratio]
TTAGGTCAACAGAGAAAAAAAAAAACTCCAGCCACTCCCGCCTCCCTTCCTTCCTCATTCCTCCACACAGCTAGCCTTTTAAAACAATCTAAGTAAACAGCAAAGTAACATCTATTTGAGTTACACATTGGTTCACATGCTGAGAAGAAGAAAAAAAAATGCCTATAAAAGTCTTTAGAAAAAGGAGAGGTTC | 0.364
AAAGTAATGAAATAAAAAAAACCTGTTAGCCAAGAATCCTATATCTGGCAAAACCATCCTTCAAAAATGAAGGAGAAATTAAGACATTCCTAGATAATCTAACACTGAGGGAGTTCATTGCTAGTTGGCCTGCCCTACAAGAAATACAAAATACTTCAGGCAGAAGTGAAAAAACACTAAATCTTGAAGCCAT | 0.00765
AATCCAGCTACCTATCTTCAGTTCCTTGGCCTTCAGCTGGCAGTGAAACAGACACATCAGCTTTAAGACTGGCAGCCAAATAGTTAACGATCTGTAAACATACAATTACGCAAGTAGAGAGTTCCTGTTCAAACAGACTGGATGAAAGCCCTTCCATAAAGAACCCTTTAGGTGATGATGCTAAAATTATTTT | 0.293
TTTTTTAGTCTCACTAACTCCAAATCCCCCAAAACAGAAAATGATTCTGTAATTATAAGAGATATAATTTTTCTTCCCTTAGAAGAAGCAAGGTAATCTAGGAATATTGCTTTCTAAGAAATAAAGTATTTTCTTATGCTGGACAAATCATGTTTCCTTAACATAAAGAACTTTATAGTTACATGTAAATTAG | -0.0415
GAATCATGCACAATTGTACCAGGCAGCCCCGAGCCAAGCCCTTTTATGACTTCCTTCCTTTCCACATATTGCTTCCCCTGCCACAACTGCCCTTGTTTGCCTTTCCTCCCCCCATTTCTTTATATGGTGCAACATCTAACACTTAGTTCTCAAATTCTGCCCAAATATAATCCTGGTGAACACAAACATAACA | 0.22

Study 2
Target: Sal-like protein 4, full length isoform B (SALL4, Homo sapiens, UniProt Q9UJQ4-2, residues 1-616)
Method: universal PBM
Form: double-stranded DNA, one strand shown
Matrix: in vitro
Tested at: not given
Setting: 8-mer, flanks averaged, mean of replicates
Reading: higher = stronger binding
Strand | E-score
CGATGACA | 0.078
AACGCATT | 0.18
ACCGAACA | 0.0733
ATCATTGA | 0.232
GGGAAATA | 0.16
TAGATCAA | 0.131
CTATCGTA | 0.208
CCATAAGA | 0.152
AGCTACGG | -0.265
AGGCAGTA | -0.0203
ACAGTCCT | -0.0284
AGTAGGCA | 0.0496
ATCCACGA | 0.0997
CTTATTGC | 0.0897
AACTCATG | 0.131
AAAGGTAC | 0.0187
GGCGGGAC | -0.319
TAATGGGA | 0.173
AGGCCCCA | -0.293
CGTTTGGA | -0.0865
AGTTCGAC | -0.125
AGCGAGCG | -0.165
ATTAATGC | 0.294
GAGTATAA | 0.282
CGCCGTCC | -0.183

Study 3
Target: Interferon regulatory factor 5, full length, phosphomimetic (IRF5, Homo sapiens, UniProt Q13568-2, residues 1-514, S451D/S453D/S456D/S462D)
Method: protein-binding microarray
Form: double-stranded DNA, one strand shown
Matrix: in vitro
Tested at: 940 nM top
Setting: 60-bp whole probe
Together with: salmon DNA 0.4 mg/ml
Relative to: random background probes
Reading: higher = stronger binding
Constant ends, left off below: GCCTAGCAC … GTCTTGATTCGCTTGACGCTGCTG
Strand | fitted relative affinity
TTAGAACTGAGGATCGATTAGTGCTAG | -0.392 z-score
AGGAGAGATTAAGTAACTTAGTGCTAG | -0.401 z-score
GACGATATCGGGTTGCGAGACGTGCTA | 0.263 z-score
TCAGCATTGCTTCTATAACTGTGCTAG | -0.192 z-score
TCAAGAAAGAAAACGGGGAGGTGCTAG | 0.0704 z-score
TCAGATATCAGTATCGATTAGTGCTAG | 4.85 z-score
TCCTCTTTACTGCTCCACACGTGCTAG | 1.12 z-score
TTAGAACTGAGTCTCGTTTAGTGCTAG | 1.19 z-score
GACGATCTCAGTCACGAGACGTGCTAG | 0.208 z-score
CAGAAGTTCATGTTCAACCAGTGCTAG | -0.165 z-score
TGAGGACTGGGGTATCGGTTAGTGCTA | 2.57 z-score
CACGGTATCGGTCTCGGGACGTGCTAG | 7.49 z-score
TTATATACCTGTATATCTTCGTGCTAG | 0.05 z-score
GACGGACTGGGATATCGGGACGTGCTA | -0.285 z-score
GACGATCTCAGTCTAGAGACGTGCTAG | 0.217 z-score
TTAGGTTCCGGTGTCGGTTAGTGCTAG | 2.88 z-score
TTAGGTATCGGTCTCGTTTAGTGCTAG | 9.78 z-score
GACGGACTGGCGACTGGGGACGTGCTA | -0.503 z-score
TTAGAACTGAGTCTCGATTGGTGCTAG | 2.46 z-score

Study 4
Target: Histone acetyltransferase KAT6A, winged helix 2, GST fusion (KAT6A, Homo sapiens, UniProt Q92794, residues 85-181)
Method: protein binding microarray
Form: double-stranded DNA, one strand shown
Matrix: in vitro
Tested at: not given
Setting: 8-mer, flanks averaged, mean of 2 arrays, mostly near background
Relative to: not given
Reading: higher = stronger binding
Target sequence (chain): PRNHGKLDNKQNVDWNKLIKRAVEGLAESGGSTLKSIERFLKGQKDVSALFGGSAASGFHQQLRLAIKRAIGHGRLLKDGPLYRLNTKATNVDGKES
Strand | E-score
ATAAATCC | 0.0181
CCCCGCTC | 0.0231
AAAATAAT | 0.181
GGATGCGA | -0.0498
AGATTAGG | -0.105
GGTGCCTA | -0.0566
ATCCTGAA | 0.0307
AGAAGGCC | 0.0676
ACGGTTGC | -0.184
GGCTGAAC | 0.139
GGCATGAA | 0.0942
ATAGTTGA | -0.0309
AGGATGCC | -0.139
CCTCGTAA | 0.0763
ATTATGTG | -0.0713
ACTGCCTA | -0.0926
GGTCTTAA | -0.14
ATTTTCTA | -0.0243
CTCGTTCC | -0.0647
GTGCTTGA | 0.117
GGGCCACC | 0.248
ACTCCATA | -0.156
CCTAGAAG | -0.0466
ACCCTAGC | 0.0459
GTGATAAC | -0.166

For quick reference, copied from above (study 3):
Strand | fitted relative affinity
TCAGATATCAGTATCGATTAGTGCTAG | 4.85 z-score
TTAGAACTGAGTCTCGATTGGTGCTAG | 2.46 z-score
GACGGACTGGCGACTGGGGACGTGCTA | -0.503 z-score
GACGATCTCAGTCTAGAGACGTGCTAG | 0.217 z-score
GACGATATCGGGTTGCGAGACGTGCTA | 0.263 z-score
CACGGTATCGGTCTCGGGACGTGCTAG | 7.49 z-score
GACGATCTCAGTCACGAGACGTGCTAG | 0.208 z-score
